Results collected from several papers.
± marks the error that the study gave.
AR: Androgen receptor (AR, Homo sapiens, UniProt P10275)
Chain of UniProt P10275 (whole entry, looked up): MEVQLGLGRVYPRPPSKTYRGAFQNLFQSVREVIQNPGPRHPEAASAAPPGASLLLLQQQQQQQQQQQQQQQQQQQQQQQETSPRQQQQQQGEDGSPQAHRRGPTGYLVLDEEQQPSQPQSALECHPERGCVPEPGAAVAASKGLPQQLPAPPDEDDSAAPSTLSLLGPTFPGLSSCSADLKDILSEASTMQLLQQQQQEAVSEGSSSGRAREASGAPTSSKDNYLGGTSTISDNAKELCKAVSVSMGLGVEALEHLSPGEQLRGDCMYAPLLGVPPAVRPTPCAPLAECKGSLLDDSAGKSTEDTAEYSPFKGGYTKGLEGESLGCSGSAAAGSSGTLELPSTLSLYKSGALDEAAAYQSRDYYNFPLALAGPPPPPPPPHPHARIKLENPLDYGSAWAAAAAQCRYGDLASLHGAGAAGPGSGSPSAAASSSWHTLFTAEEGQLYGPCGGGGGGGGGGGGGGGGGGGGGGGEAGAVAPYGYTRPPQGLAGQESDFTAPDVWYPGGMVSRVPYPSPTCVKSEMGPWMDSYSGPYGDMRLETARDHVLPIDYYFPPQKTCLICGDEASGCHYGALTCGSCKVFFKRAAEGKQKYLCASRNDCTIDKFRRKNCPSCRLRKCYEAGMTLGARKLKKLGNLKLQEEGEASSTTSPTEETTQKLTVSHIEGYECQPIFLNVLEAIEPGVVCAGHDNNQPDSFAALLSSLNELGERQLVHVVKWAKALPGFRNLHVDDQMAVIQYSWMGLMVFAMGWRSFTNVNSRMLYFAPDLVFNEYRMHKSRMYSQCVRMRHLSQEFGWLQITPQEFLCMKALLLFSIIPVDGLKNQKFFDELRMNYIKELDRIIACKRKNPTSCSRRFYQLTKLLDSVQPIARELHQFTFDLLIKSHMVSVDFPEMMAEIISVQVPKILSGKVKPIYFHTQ
Faah: Fatty-acid amide hydrolase 1 (Faah, Mus musculus, UniProt O08914)
Chain of UniProt O08914 (whole entry, looked up): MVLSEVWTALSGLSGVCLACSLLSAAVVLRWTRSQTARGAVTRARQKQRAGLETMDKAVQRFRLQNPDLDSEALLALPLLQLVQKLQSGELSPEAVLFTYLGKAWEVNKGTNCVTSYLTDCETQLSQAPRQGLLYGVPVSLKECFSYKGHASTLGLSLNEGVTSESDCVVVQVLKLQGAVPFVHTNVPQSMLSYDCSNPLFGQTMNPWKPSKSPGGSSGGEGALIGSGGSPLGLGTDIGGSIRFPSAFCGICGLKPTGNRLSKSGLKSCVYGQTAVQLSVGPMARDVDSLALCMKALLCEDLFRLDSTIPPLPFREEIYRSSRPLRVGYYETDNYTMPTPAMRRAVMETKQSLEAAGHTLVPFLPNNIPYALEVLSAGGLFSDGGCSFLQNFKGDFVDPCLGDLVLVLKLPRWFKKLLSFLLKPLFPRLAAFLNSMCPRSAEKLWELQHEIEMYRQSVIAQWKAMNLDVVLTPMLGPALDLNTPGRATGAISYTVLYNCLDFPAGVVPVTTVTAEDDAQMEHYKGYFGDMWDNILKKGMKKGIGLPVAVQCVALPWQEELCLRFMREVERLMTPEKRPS
Chain of UniProt Q08345 (whole entry, looked up): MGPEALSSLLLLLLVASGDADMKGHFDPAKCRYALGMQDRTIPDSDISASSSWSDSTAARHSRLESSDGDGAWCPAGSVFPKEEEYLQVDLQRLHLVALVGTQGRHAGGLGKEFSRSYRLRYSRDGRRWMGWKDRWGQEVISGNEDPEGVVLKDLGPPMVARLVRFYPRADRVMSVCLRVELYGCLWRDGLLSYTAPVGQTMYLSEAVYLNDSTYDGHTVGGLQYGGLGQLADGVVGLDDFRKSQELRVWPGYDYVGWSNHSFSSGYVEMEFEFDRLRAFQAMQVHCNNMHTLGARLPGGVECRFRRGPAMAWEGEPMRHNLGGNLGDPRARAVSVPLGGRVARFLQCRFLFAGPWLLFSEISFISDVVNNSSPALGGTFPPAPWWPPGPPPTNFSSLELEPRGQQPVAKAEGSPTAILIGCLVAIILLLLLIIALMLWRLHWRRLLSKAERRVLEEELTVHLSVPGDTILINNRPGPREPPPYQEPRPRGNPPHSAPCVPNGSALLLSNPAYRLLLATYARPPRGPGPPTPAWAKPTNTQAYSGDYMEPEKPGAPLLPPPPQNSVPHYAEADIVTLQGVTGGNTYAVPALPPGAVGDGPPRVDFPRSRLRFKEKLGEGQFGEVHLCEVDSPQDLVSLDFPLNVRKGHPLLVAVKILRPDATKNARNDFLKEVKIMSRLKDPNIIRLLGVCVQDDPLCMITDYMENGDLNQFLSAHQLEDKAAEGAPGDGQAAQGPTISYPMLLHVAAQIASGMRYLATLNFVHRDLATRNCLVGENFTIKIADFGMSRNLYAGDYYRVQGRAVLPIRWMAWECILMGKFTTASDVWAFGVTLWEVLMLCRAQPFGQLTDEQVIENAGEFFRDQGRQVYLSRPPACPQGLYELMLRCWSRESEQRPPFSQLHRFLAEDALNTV
Chain of UniProt Q9GZX7 (whole entry, looked up): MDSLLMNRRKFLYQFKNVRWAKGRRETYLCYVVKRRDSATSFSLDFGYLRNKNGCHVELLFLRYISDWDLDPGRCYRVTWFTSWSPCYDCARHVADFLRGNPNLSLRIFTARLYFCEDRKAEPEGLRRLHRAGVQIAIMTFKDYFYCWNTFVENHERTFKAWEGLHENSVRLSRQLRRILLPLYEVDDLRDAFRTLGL
Chain of UniProt O14746 (whole entry, looked up): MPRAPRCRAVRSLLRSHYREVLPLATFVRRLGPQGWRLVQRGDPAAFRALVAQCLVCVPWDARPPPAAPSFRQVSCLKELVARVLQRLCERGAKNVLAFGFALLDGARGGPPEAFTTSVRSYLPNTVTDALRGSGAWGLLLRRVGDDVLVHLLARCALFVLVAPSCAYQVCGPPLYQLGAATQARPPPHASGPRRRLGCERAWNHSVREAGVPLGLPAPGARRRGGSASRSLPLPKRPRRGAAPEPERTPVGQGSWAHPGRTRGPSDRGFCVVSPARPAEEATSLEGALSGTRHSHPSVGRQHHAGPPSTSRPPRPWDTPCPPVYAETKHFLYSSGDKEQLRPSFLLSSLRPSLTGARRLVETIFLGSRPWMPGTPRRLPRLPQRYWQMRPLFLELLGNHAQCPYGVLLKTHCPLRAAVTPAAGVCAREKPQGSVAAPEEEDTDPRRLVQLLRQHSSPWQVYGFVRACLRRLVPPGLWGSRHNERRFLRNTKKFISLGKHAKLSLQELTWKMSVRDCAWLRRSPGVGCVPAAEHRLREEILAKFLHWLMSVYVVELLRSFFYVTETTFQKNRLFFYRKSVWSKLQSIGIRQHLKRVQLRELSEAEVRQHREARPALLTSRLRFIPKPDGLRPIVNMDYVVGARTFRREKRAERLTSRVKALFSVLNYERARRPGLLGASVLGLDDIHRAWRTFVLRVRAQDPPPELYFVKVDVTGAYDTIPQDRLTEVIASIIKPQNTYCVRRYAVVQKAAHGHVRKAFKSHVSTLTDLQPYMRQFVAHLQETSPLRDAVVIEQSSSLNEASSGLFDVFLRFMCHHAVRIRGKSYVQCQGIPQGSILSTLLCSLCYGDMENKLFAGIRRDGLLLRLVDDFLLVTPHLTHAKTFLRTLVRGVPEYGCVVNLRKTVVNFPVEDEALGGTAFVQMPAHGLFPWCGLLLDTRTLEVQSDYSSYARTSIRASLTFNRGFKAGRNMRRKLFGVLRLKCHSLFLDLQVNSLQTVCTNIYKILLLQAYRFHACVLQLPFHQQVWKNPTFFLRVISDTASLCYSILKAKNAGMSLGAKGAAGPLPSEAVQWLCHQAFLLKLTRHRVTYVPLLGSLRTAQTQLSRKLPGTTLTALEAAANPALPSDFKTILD

CCCCCCCCCCCCSc1nc2c([nH]1)c(=S)n(C)c(=O)n2C — remaining activity (AR; reporter gene, antagonist, PSA-luciferase; HeLa-A6; 10 µM, 24 h, with: 5 nM dihydrotestosterone; reference: maximal activity): 104%
CN(Cc1cnc2ccccc2n1)C(=O)Nc1nc(-c2ccco2)n[nH]1 — remaining activity (Single-stranded DNA cytosine deaminase (AICDA, Homo sapiens, UniProt Q9GZX7); deaminase activity, inhibitor, alkaline cleavage; 293T lysate, His-tagged AID; concentration not given, DMSO 100%): 43.9%
CC(C)CSc1nc2c([nH]1)c(=S)n(C)c(=O)n2C — remaining activity (AR; reporter gene, antagonist, PSA-luciferase; HeLa-A6; 10 µM, 24 h, with: 5 nM dihydrotestosterone; reference: maximal activity): 134%
[N-]=[N+]=N[C@H]1C[C@H](n2cnc3c(=O)[nH]c(N)nc32)O[C@@H]1COP(=O)(O)OP(=O)(O)OP(=O)(O)O — remaining activity (TERT (Homo sapiens, UniProt O14746); enzyme activity, stretch PCR; 10 µM, with: competing dNTP 10 µM): 3%
NC(CNC(CNC(CC(=O)O)C(=O)O)C(=O)O)C(=O)O (stereo not shown) — remaining activity (angiotensin-converting enzyme, rabbit; 500 µM, 0 min, Zn-depleted buffer): 53.1 ± 8.4%
CC1(C)CCN(Cc2ccc(C(=O)NC[C@]3(O)CCCN(c4cc(NCc5ccccc5)ncn4)C3)c(O)c2)CC1 — remaining activity (DDR1 (Homo sapiens, UniProt Q08345); kinase activity, radiometric; 10 µM, with: 10 µM ATP): 85%
CCCCCCCCCCSc1nc2c([nH]1)c(=S)n(C)c(=S)n2C — remaining activity (AR; reporter gene, antagonist, PSA-luciferase; HeLa-A6; 10 µM, 24 h, with: 5 nM dihydrotestosterone; reference: maximal activity): 85%
O=C(Nc1ccc(OC(F)(F)F)cc1)N1CCC(Cc2cccc(Oc3ccc(C(F)(F)F)cn3)c2)CC1 — remaining activity (Faah; mice, liver; intraperitoneal, 10 mg/kg, 4 h, vehicle DMSO; reference: control): 22 ± 2%
CC(=O)c1c(O)c2ccc3ccccc3c2oc1=O — remaining activity (SYK (Homo sapiens, UniProt P43405); enzyme activity, inhibitor, ADP-Glo; 5 µM): 72.9 ± 2.7%
COc1cc2nnn(C(=O)N3COCC3(C)C)c2cc1OC — remaining activity (Faah; inhibitor; mouse, liver; oral, 0.1 mg/kg, 8 h after dose; reference: control): 8 ± 4%

Some of these lines once more:
COc1cc2nnn(C(=O)N3COCC3(C)C)c2cc1OC — remaining activity (Faah; inhibitor; mouse, liver; oral, 0.1 mg/kg, 8 h after dose; reference: control): 8 ± 4%
